Experimental data gathered from unrelated publications.
Numbered parts are unrelated; each lists some results of a single study. Substitutions count along the parent as printed.

Study 1
Target: ABI1, truncated, D143A, DHFR fusion (Arabidopsis thaliana, UniProt P49597)
Method: DHFR PCA, dose-response
Matrix: yeast
Notes: Hill fit, mean, not affinity
Added: (+)-ABA, dose series
Reading: lower = more sensitive
Starting sequence: PYL1, truncated, DHFR fusion (Arabidopsis thaliana, UniProt Q8VZS8); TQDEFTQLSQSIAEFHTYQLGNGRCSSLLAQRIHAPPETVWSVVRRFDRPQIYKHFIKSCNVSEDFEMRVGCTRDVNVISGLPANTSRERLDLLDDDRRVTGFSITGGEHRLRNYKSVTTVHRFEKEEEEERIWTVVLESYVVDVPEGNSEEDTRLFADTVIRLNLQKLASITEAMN
| Variant | ABA EC50 [µM] |
| --- | --- |
| G23N | 3.26 |
| S27Q | 12.6 |
| V62F | 13.2 |
| I79V | 1.79 |
| T160A | 30.6 |
| S80G | 137 |
| G108V | 619 |
| G21M | 2.66 |
| E131Q | 4.48 |
| R49H | 4.12 |

Study 2
Target: Sal-like protein 4, full length isoform B (SALL4, Homo sapiens, UniProt Q9UJQ4-2, residues 1-616)
Method: universal PBM
Molecule type: double-stranded DNA, one strand shown
Matrix: in vitro
Tested at: not given
Notes: 8-mer, flanks averaged, mean of replicates
Reading: higher = stronger binding
Construct (chain): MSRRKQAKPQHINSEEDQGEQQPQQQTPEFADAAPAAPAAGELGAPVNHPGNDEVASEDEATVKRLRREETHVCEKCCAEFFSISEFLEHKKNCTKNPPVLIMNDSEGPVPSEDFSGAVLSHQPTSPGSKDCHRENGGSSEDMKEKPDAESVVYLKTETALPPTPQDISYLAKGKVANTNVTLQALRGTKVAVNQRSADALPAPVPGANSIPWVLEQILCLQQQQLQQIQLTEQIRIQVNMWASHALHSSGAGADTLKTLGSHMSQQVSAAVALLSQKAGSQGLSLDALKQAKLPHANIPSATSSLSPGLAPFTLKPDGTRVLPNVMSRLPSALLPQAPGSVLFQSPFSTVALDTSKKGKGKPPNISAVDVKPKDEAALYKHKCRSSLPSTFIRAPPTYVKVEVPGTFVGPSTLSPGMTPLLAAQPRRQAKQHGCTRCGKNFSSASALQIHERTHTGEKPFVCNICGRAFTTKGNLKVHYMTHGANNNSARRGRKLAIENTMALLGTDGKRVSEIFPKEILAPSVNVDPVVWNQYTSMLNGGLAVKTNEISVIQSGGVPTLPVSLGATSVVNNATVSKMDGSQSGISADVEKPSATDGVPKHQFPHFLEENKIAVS
| Sequence | E-score |
| --- | --- |
| CCGTGGCA | -0.215 |
| AATGCGAA | 0.164 |
| CAGTGGGA | -0.211 |
| GGGGATGA | -0.208 |
| AATGAATG | 0.261 |
| AGTACACC | 0.0214 |
| ACTGGAAC | -0.106 |
| AAATTGCC | 0.193 |
| CTGGAGAC | -0.268 |
| CTTAGGTA | -0.0395 |
| GAGAGTGA | -0.0584 |
| TGCGCCCA | -0.245 |
| AAGACTCA | -0.0446 |
| TGCGCAAA | 0.139 |

Study 3
Target: Interferon regulatory factor 7, full length, phosphomimetic (IRF7, Homo sapiens, UniProt Q92985, residues 1-503, S101K/S471D/S472D/S475D/S476D/S477D/S483D/S484D/S487D)
UniProt Q92985, sequence (whole entry, unmodified, looked up): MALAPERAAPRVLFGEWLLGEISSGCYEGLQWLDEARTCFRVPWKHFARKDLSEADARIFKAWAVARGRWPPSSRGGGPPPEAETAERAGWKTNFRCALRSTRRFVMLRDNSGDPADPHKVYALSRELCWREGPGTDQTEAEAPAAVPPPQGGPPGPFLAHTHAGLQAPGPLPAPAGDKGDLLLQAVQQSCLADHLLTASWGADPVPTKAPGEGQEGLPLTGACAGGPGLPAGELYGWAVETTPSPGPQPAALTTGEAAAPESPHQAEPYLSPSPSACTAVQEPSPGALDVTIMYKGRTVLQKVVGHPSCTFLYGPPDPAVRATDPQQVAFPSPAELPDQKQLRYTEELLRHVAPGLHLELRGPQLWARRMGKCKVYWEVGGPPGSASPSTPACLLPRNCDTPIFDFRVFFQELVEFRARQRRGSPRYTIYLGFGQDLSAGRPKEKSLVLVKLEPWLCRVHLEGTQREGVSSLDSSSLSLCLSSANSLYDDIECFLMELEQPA
Method: protein-binding microarray
Molecule type: double-stranded DNA, one strand shown
Matrix: in vitro
Tested at: 250 nM
Notes: 60-bp whole probe
Added: salmon DNA 0.4 mg/ml
Baseline: random background probes
Reading: higher = stronger binding
Constant ends, left off below: GCCTAGCAC … GTCTTGATTCGCTTGACGCTGCTG
| Sequence | log fluorescence |
| --- | --- |
| ATAGGACTGCTACTGCTTTAGTGCTAG | -0.528 z-score |
| TTAAGTTTCCTACTGCTTTAGTGCTAG | 1.72 z-score |
| TTGGAACTGGGGACTGGATTAGTGCTA | -0.549 z-score |
| TCATTTCCCAACATCAGACTGTGCTAG | 4.09 z-score |
| TCATCTTGCAGTATGGAACTGTGCTAG | 0.0999 z-score |
| GTAGATATCAGTCTCGATTAGTGCTAG | 1.16 z-score |
| GACGGACTGTGTTTCGGGACGTGCTAG | 0.382 z-score |
| GACGTACTGGGGTTTCGGGACGTGCTA | 1.17 z-score |
| GCCGATCTCAGTCTCGAGACGTGCTAG | 0.503 z-score |
| GACAATCTCAGTTTCGAGACGTGCTAG | 4.14 z-score |
| GACGGACTGCTTCTCCTGCCGTGCTAG | -0.201 z-score |

Study 4
Target: CCNF, cyclin fold, Cln2 fusion (human)
Method: yeast growth competition, sequencing
Matrix: yeast
Notes: strong parent motif
Baseline: not given
Reading: higher = stronger binding
Starting sequence: RB1 docking peptide (human); PKPLKKLRFDIEG; partner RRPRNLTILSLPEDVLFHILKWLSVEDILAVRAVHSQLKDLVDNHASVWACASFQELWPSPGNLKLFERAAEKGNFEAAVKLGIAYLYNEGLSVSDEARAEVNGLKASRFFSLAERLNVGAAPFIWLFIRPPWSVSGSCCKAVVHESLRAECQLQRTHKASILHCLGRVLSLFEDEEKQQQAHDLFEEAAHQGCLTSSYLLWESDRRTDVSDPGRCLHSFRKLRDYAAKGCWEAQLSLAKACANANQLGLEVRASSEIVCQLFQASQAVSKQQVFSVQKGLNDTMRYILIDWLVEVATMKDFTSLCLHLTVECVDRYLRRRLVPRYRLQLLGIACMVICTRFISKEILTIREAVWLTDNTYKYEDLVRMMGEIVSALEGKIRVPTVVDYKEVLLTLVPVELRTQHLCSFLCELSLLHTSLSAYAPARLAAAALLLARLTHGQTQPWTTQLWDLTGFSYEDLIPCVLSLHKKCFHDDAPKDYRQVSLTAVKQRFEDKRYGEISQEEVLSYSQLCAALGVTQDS
| Variant | normalised enrichment score |
| --- | --- |
| PKPLKKLRFTIEG [D10T] | 1.03 |
| PKPLKKLMFDIEG [R8M] | 1.09 |
| PKPLKKLRFDPEG [I11P] | 1.3 |
| PKPLKKLRFDIEY [G13Y] | -0.124 |
| PKELKKLRFDIEG [P3E] | 1.48 |
| PKPLKKLRFDIET [G13T] | 0.389 |
| MKPLKKLRFDIEG [P1M] | 1.1 |
| DKPLKKLRFDIEG [P1D] | 3.22 |
| PKPLKKLRADIEG [F9A] | 1.76 |
| PKPLKKLRFDIKG [E12K] | 0.985 |

Study 5
Target: RING finger protein unkempt homolog, zinc fingers 1-6, GST-SBP tag (UNK, Homo sapiens, UniProt Q9C0B0, residues 30-357)
Method: RNA Bind-n-Seq
Molecule type: RNA
Matrix: in vitro
Tested at: not given
Notes: RNA with constant flanks, human and mouse sites, ends assumed
Baseline: input RNA pool
Reading: higher = stronger binding
Construct (chain): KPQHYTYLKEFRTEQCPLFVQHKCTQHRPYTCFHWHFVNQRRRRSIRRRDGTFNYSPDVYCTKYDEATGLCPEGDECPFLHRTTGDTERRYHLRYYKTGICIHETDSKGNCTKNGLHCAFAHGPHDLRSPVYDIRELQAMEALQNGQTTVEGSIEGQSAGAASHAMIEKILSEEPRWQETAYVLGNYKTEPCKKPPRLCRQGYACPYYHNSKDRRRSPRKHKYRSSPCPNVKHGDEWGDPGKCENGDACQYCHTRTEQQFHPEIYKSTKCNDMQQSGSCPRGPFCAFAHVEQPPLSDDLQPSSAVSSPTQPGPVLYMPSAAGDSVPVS
| Sequence | bound/input enrichment [ratio] |
| --- | --- |
| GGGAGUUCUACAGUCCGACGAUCUACUCAGACAAGUACUUCGAUGAGCACUACGAGUACCGGCAUGUCAUGUUACCCAGAGAACUCUCUAAACAAGUACCCAAAACUCAUCUGAUGUCCGAAGAGGAGUGGAGGAGACUUGGUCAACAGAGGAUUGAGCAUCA | 0.0559 |
| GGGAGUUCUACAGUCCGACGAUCUCCGGGGGCGGCACCGCCAGAAAACUGAUUGGGAGGUAGCUAUUAAAAGUAUUAAUAAAAAGAACUUGUCAAAAUCACAAAUACUGCUUGGAAAGGAAAUUAAAAUCUUAAAGGAACUUCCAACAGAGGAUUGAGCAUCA | 0.57 |
| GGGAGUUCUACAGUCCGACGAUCAAAAAAGAGGCAAAGAAACGGGAGAAACUAGAGAAAUUCCAGCAGAAGCAGAAGACCCAGCAGCAGCCCCCGCACGGAGAGAAGAAACCAAAACCAGAGAAGAAGGAGAAACGGGACCCUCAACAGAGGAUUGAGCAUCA | 0.506 |
| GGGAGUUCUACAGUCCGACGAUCACUGGAGUUGUGCACAGCACCGCAGCUAGUGGGCCUGGCUGGGGGUGCAGAAGGGCAGGGUAGUUCUUUCCAUUUCCCCUUGCAGCUACACUUACUUUCUCCCUGACUACCAAAUGGAGUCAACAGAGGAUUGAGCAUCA | 0.249 |
| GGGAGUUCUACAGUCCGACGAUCUCCCAGCACUUUGAUAAAAAGUGUGGACUGGUUGCUUGUAUUUUCCUUAUUCUUUUUAAUUAGUUUUAUUAUGUAUGCUACCAUUCGAACUGAGAGUAUUCGGUGGCUAAUUCCAGGACACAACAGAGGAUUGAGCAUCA | 28.8 |
| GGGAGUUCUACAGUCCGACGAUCAAAGUCUUUGGAGGCACUGUGCAUAAAAAAAGUGUUAGAGAGGAUGGAGUUUUCAACAUUAGUAUGGAUAAUACGUGUUCAUUAUUCAGGGGCCUGCAGAAGGAAGAAAUUGUUUUACUUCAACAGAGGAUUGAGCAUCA | 0.555 |

Study 6
Target: Histone acetyltransferase KAT6A, winged helix 2, GST fusion (KAT6A, Homo sapiens, UniProt Q92794, residues 85-181)
Method: protein binding microarray
Molecule type: double-stranded DNA, one strand shown
Matrix: in vitro
Tested at: not given
Notes: 8-mer, flanks averaged, mean of 2 arrays, mostly near background
Baseline: not given
Reading: higher = stronger binding
Residues (chain): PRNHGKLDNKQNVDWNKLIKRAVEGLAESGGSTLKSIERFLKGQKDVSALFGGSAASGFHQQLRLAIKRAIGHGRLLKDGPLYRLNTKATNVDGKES
| Sequence | E-score |
| --- | --- |
| GCATGATA | 0.0564 |
| AGTGATGA | -0.0158 |
| ATTTCTGG | -0.17 |
| CCAAATCG | -0.0395 |
| GCAGCTTA | 0.151 |
| CATGCGCC | 0.108 |
| ACTGGAAT | -0.0751 |
| GGCGGGAA | -0.00269 |
| ATCAGATA | -0.0818 |
| AGGGTTCA | -0.06 |
| GCCCTCGA | 0.0806 |
| CAAGTCCA | -0.0892 |
| ATATTACA | 0.0204 |
| AGATGGAC | -0.0307 |
| AAAATATA | 0.107 |
| CGCCCTGC | 0.19 |
| GCCCATCA | -0.122 |
| GCTACACC | 0.0182 |

Excerpt of the above (study 6):
| Sequence | E-score |
| --- | --- |
| GCCCATCA | -0.122 |
| GCCCTCGA | 0.0806 |
| GCTACACC | 0.0182 |
| CCAAATCG | -0.0395 |
| GCAGCTTA | 0.151 |
| CATGCGCC | 0.108 |
